Measured values from different studies.
Compare with care: the assays were run in different laboratories.
T1: PDHA1/PDHB 30-390 E234Q on β (Homo sapiens); chain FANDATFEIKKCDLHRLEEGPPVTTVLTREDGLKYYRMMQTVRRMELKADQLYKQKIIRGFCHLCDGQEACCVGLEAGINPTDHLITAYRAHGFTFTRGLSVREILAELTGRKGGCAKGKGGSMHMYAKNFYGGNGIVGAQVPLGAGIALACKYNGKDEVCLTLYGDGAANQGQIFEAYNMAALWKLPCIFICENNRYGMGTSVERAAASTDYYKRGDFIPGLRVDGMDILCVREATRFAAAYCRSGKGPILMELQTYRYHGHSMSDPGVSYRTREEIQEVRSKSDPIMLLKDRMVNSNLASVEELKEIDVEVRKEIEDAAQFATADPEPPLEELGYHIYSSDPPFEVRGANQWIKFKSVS; chain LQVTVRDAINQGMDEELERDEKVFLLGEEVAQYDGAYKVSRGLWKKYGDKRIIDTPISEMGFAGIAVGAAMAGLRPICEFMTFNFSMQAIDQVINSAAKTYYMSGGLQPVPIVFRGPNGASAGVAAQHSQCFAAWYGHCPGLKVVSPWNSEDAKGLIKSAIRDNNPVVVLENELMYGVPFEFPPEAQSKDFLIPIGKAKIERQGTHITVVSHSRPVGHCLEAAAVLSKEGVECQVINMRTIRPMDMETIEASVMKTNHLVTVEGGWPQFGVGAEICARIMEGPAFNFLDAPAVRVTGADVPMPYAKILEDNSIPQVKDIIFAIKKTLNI
B1: GET1 21-104 (Saccharomyces cerevisiae, UniProt P53192); Alexa594 label; sequence looked up; chain TNKYHEKWISKFAPGNELSKKYLAKVKERHELKEFNNSISAQDNYAKWTKNNRKLDSLDKEINNLKDEIQSENKAFQAHLHKLR
B2: mel-26 (Caenorhabditis elegans, UniProt Q94420); sequence looked up; chain MEPRIDGGVFIGGIGNSGNEMCSNGVPALGVSSQTEIKVEKVQHTWTVKNFSHCYQEYLENFVYLQRGDEQLTWSIKIYPKGNGENNKDFVFLCLNRVINNNVKAGKIGFKSQFKLRTAENKDIEMRIHPNPSHSDYVSYIKRDVLFPQIMPRDMIIVNVEIDVAVETITTTNEPIQFEPTNSEQQLIEDYQRLFSQELLCDFAINVNGKIIRAHKAVLAARSPVFNAMLTHQDTDEAKSSMMYINDMDYDVIYEMVYYIYCGRCNKDITDMATALLIAADKYRLEELKSHCEKYLVENINIENACSLLIIGDLYSAPKLRKRAVTYILARPKNVTGTPGWEDILKGHPNLITDIFSQIDRQSSTGATSSVSNLPGVPMDIPGITGNIVPPPSGL
B3: slc12a2 1-202 (Danio rerio, UniProt A0A0G2KTI4); sequence looked up; chain MSASPPISAGDYLSAPEPDALKPAGPTPSQSRFQVDLVTESAGDGETTVGFDSSPPEYVAEPPPDGLRDSVSGGEEAKGRFRVVNFAASSPDAAPAETAQNGDTVMSEGSLHSSTGGQQHHHYDTHTNTYYLRTFGHNTIDAVPKIDFYRQTAAPLGEKLIRPTLSELHDELDKEPFEDGFANGEELTPAEESAAKDVSESK
B4: kaiB (Synechococcus elongatus, UniProt Q79PF5); chain MSPRKTYILKLYVAGNTPNSVRALKTLKNILEVEFQGVYALKVIDVLKNPQLAEEDKILATPTLAKVLPLPVRRIIGDLSDREKVLIGLDLLYGELQDSDDF
B5: DLAT 214-416 (Homo sapiens, UniProt P10515); sequence looked up; chain SYPPHMQVLLPALSPTMTMGTVQRWEKKVGEKLSEGDLLAEIETDKATIGFEVQEEGYLAKILVPEGTRDVPLGTPLCIIVEKEADISAFADYRPTEVTDLKPQVPPPTPPPVAAVPPTPQPLAPTPSAPCPATPAGPKGRVFVSPLAKKLAVEKGIDLTQVKGTGPDGRITKKDIDSFVPSKVAPAPAAVVPPTGPGMAPVP
B6: UGT1A9 (Homo sapiens, UniProt O60656); chain GKLLVVPMDGSHWFTMRSVVEKLILRGHEVVVVMPEVSWQLGRSLNCTVKTYSTSYTLEDLDREFKAFAHAQWKAQVRSIYSLLMGSYNDIFDLFFSNCRSLFKDKKLVEYLKESSFDAVFLDPFDNCGLIVAKYFSLPSVVFARGILCHYLEEGAQCPAPLSYVPRILLGFSDAMTFKERVRNHIMHLEEHLLCHRFFKNALEIASEILQTPVTEYDLYSHTSIWLLRTDFVLDYPKPVMPNMIFIGGINCHQGKPLPMEFEAYINASGEHGIVVFSLGSMVSEIPEKKAMAIADALGKIPQTVLWRYTGTRPSNLANNTILVKWLPQNDLLGHPMTRAFITHAGSHGVYESICNGVPMVMMPLFGDQMDNAKRMETKGAGVTLNVLEMTSEDLENALKAVINDKSYKENIMRLSSLHKDRPVEPLDLAVFWVEFVMRHKGAPHLRPAAHDLTWYQYHSLDVIGFLLAVVLTVAFITFKCCAYGYRKCLGKKGRVKKAHKSKTH
B7: ARRB1 A12C/V387C (Homo sapiens, UniProt P49407); AlexaFluor 488, ATTO647N labels; chain MGDKGTRVFKKCSPNGKLTVYLGKRDFVDHIDLVDPVDGVVLVDPEYLKERRVYVTLTVAFRYGREDLDVLGLTFRKDLFVANVQSFPPAPEDKKPLTRLQERLIKKLGEHAYPFTFEIPPNLPSSVTLQPGPEDTGKALGVDYEVKAFVAENLEEKIHKRNSVRLVIRKVQYAPERPGPQPTAETTRQFLMSDKPLHLEASLDKEIYYHGEPISVNVHVTNNTNKTVKKIKISVRQYADIVLFNTAQYKVPVAMEEADDTVAPSSTFSKVYTLTPFLANNREKRGLALDGKLKHEDTNLASSTLLREGANREILGIIVSYKVKVKLVVSRGGLLGDLASSDVAVELPFTLMHPKPKEEPPHREVPENETPVDTNLIELDTNDDDICFEDFARQRLKGMKDDKEEEEDGTGSPQLNNR
B8: fbcF 9-187 (Rhodobacter sphaeroides, UniProt Q02762); chain GTRRDFLYYATAGAGAVATGAAVWPLINQMNPSADVQALASIFVDVSSVEPGVQLTVKFLGKPIFIRRRTEADIELGRSVQLGQLVDTNARNANIDAGAEATDQNRTLDEAGEWLVMWGVCTHLGCVPIGGVSGDFGGWFCPCHGSHYDSAGRIRKGPAPENLPIPLAKFIDETTIQLG
B9: PHKG1 (Homo sapiens, UniProt Q16816); sequence looked up; chain MTRDEALPDSHSAQDFYENYEPKEILGRGVSSVVRRCIHKPTSQEYAVKVIDVTGGGSFSPEEVRELREATLKEVDILRKVSGHPNIIQLKDTYETNTFFFLVFDLMKRGELFDYLTEKVTLSEKETRKIMRALLEVICTLHKLNIVHRDLKPENILLDDNMNIKLTDFGFSCQLEPGERLREVCGTPSYLAPEIIECSMNEDHPGYGKEVDMWSTGVIMYTLLAGSPPFWHRKQMLMLRMIMSGNYQFGSPEWDDYSDTVKDLVSRFLVVQPQNRYTAEEALAHPFFQQYLVEEVRHFSPRGKFKVIALTVLASVRIYYQYRRVKPVTREIVIRDPYALRPLRRLIDAYAFRIYGHWVKKGQQQNRAALFENTPKAVLLSLAEEDY
B10: rasC GTP-bound Q62L (Dictyostelium discoideum, UniProt P32253); chain MSKLLKLVIVGDGGVGKSALTIQLTQNQFIAEYDPTIENSYRKQVNIDEEVYMLDILDTAGLEEYSAMRDQYIRSGRGFLIVYSIISRASFEAVTTFREQILRVKDLSTYPIVIIGNKADLPDKDRKVPPMEGKELAKSFGAPFLETSAKSRVNVEEAFFTLVREIKRWNQNPQNEEMLPPKKRGCIIL
UniProt Q79PF4, sequence (whole entry, unmodified, looked up): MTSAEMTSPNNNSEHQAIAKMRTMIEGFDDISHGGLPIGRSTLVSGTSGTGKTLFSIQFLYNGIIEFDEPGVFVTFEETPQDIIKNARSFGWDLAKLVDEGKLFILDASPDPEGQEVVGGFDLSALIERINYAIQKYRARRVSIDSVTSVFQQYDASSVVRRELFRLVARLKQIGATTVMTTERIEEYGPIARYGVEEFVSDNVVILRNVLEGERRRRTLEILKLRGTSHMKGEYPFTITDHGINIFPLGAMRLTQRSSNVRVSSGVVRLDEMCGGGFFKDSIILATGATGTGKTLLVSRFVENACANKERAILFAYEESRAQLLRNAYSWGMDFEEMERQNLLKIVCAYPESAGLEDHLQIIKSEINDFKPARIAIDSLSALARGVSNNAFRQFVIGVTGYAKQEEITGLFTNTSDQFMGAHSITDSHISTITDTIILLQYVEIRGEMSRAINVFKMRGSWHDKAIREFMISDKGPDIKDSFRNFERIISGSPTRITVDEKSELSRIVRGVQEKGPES
UniProt Q12154, sequence (whole entry, unmodified, looked up): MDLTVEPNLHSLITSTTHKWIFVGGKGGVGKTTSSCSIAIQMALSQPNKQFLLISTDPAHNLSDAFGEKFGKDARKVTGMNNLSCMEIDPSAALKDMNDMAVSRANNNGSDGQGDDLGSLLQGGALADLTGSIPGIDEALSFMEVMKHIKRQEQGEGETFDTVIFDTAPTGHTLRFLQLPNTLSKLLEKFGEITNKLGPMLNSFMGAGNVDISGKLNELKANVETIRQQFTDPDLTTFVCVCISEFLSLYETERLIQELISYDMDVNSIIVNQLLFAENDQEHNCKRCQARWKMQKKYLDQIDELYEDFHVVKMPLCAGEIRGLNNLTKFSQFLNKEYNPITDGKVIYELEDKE
UniProt Q05695, sequence (whole entry, looked up): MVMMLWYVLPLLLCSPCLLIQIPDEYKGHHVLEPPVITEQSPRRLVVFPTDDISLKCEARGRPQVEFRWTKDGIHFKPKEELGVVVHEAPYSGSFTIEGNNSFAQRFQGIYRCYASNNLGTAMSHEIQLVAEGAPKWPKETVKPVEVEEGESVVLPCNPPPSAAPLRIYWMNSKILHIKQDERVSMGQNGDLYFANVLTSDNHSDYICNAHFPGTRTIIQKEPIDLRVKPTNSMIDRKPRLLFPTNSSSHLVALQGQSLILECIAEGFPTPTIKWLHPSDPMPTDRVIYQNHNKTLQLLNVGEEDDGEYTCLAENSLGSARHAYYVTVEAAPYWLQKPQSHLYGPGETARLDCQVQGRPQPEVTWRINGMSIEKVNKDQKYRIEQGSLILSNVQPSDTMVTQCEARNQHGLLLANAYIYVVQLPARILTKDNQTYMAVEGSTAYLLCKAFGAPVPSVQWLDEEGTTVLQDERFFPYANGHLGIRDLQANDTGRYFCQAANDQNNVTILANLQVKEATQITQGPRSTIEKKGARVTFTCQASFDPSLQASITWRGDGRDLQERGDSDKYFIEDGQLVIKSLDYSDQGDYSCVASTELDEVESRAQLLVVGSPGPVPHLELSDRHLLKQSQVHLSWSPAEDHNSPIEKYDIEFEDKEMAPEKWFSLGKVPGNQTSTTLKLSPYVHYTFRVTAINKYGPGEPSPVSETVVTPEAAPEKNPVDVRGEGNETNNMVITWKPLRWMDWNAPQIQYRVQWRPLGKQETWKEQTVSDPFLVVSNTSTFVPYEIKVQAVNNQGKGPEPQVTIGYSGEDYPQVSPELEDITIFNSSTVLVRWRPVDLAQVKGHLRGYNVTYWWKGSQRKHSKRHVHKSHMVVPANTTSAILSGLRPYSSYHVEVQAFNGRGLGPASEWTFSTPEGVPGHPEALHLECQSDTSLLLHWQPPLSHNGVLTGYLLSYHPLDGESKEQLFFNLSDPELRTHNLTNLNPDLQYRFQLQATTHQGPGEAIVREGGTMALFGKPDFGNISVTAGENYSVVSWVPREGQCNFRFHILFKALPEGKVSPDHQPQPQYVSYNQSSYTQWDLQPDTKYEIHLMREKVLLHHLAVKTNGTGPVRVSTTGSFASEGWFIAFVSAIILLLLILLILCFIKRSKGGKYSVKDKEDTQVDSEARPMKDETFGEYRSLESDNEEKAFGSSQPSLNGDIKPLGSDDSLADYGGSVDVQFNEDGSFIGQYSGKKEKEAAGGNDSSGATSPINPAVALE
UniProt P46020, sequence (whole entry, looked up): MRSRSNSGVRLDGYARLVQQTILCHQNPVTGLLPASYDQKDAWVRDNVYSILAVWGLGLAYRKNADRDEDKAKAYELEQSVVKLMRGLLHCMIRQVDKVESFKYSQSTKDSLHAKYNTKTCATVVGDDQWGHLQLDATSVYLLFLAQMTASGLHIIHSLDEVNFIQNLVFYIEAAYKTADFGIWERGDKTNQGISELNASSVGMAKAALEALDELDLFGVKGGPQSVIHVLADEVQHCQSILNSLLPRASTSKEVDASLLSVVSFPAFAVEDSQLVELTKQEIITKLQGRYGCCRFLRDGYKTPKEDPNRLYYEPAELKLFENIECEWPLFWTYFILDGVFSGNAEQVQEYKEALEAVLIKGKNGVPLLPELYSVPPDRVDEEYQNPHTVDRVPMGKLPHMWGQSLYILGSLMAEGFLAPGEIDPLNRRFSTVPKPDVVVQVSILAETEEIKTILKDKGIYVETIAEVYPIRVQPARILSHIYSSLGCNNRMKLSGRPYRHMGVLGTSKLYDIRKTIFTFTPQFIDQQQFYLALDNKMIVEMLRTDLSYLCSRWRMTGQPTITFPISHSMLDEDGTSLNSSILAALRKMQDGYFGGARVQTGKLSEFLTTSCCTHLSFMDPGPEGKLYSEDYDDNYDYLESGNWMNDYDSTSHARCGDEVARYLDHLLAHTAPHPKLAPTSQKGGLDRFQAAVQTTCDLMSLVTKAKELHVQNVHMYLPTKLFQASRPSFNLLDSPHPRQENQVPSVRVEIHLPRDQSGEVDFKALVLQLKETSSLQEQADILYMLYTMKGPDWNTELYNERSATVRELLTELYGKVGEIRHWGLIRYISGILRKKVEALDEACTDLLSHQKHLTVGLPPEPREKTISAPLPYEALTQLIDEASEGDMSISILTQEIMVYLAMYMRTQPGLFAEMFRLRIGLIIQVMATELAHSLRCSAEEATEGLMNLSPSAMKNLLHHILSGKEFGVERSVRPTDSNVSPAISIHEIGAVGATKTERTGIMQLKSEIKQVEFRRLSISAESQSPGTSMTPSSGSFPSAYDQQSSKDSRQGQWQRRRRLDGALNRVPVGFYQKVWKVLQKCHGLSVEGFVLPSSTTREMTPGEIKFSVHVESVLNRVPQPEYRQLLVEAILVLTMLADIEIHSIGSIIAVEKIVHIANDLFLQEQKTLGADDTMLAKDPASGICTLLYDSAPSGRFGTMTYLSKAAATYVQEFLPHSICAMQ
UniProt P55067, sequence (whole entry, looked up): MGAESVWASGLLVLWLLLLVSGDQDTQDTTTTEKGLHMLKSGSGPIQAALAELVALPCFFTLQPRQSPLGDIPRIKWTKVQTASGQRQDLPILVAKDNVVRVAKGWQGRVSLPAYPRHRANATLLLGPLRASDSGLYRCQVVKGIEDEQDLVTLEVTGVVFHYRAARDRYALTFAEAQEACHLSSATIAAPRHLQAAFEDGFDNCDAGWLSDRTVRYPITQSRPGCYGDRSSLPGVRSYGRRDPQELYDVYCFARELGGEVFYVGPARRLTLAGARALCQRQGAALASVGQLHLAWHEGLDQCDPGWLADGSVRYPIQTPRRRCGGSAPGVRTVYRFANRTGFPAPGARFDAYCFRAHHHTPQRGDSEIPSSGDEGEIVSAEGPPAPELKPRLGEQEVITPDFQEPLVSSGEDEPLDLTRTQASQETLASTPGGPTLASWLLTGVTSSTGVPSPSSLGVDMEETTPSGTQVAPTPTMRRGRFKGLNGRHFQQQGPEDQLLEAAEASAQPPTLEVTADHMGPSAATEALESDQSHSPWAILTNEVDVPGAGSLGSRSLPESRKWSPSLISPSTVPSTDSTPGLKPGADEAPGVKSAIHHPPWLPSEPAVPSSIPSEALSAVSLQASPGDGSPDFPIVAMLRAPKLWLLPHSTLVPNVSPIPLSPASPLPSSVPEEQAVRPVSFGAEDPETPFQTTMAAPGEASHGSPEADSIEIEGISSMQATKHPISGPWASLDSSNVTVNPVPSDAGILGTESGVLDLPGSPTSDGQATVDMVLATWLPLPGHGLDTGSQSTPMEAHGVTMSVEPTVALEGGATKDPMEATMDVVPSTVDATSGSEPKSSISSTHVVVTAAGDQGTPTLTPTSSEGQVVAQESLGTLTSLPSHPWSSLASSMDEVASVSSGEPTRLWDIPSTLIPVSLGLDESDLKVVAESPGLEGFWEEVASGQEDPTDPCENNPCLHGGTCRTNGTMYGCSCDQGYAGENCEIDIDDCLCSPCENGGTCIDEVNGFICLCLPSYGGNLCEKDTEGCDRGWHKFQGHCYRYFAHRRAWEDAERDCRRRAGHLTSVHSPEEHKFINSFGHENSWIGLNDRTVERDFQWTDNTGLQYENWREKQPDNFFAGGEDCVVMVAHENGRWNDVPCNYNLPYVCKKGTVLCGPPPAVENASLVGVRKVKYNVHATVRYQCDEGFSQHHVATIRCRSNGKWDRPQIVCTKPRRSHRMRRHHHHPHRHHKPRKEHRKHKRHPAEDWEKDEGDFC
UniProt Q23862, sequence (whole entry, unmodified, looked up): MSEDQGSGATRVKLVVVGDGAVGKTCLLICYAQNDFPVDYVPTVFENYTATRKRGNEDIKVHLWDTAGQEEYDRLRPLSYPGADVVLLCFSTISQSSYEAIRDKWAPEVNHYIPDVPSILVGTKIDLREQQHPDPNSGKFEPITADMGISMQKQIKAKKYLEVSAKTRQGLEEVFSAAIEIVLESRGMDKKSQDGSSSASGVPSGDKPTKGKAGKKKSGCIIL

| Substance | target or system | assay | setting | quantity | value |
| --- | --- | --- | --- | --- | --- |
| B1 (GET1 21-104) | GET3 D57N, Alexa488 label (Saccharomyces cerevisiae, UniProt Q12154) | FRET | together with: nucleotides | binding | binds |
| loqs (Drosophila melanogaster, UniProt Q9VJY9-4) | DCR-2 (Drosophila melanogaster, UniProt A1ZAW0) | single-molecule TIRF | pH 8.0, KCl 100 mM, together with: Cy5-labeled dsRNA 100 pM | binding | binds |
| B2 (mel-26) | mei-1/mei-2 S92D, phosphorylated by MBK-2 (Caenorhabditis elegans) | dot blot | 4 °C, native | binding | binds |
| B3 (slc12a2 1-202) | SLC12A3 132-1021 E240A (Homo sapiens, UniProt P55017) | cryo-EM | together with: polythiazide 500 µM | binding | binds |
| B4 (kaiB) | kaiC S431T/T432V (Synechococcus elongatus, UniProt Q79PF4) | native gel |  | binding | binds |
| MGSNKSKPKDASQRRRSLLPETG (SRC 1-18 (Homo sapiens, UniProt P12931)) | SRC fragment, N-terminal TAMRA label (Homo sapiens) | pull-down |  | binding | binds |
| Ncan, 125I label, chondroitin sulfate chains (Rattus norvegicus, UniProt P55067) | L1cam mature (Rattus norvegicus, UniProt Q05695) | radioligand binding |  | binding | binds |
| EVEWDAFSIPELQNFLTILEKEEQDKIQQVQKKYDKFRQKLEEALRES (RASSF5 366-413 (Homo sapiens, UniProt Q8WWW0); sequence looked up) | STK3 9-491, pT180 (Homo sapiens, UniProt Q13188) | SEC |  | binding | binds |
| kaiC (Synechococcus elongatus, UniProt Q79PF4) | kaiC S431D/T432E (Synechococcus elongatus, UniProt Q79PF4) | pull-down |  | binding | binds |
| B5 (DLAT 214-416) | T1, PDHA1/PDHB 30-390 E234Q on β (Homo sapiens) | SPR |  | binding | binds |
| DIS3 (Saccharomyces cerevisiae, UniProt Q08162) | SKI6/RRP45/RRP42/MTR3/RRP46/RRP43/CSL4/RRP4/RRP40 Exo9 core (Saccharomyces cerevisiae) | SEC |  | binding | binds |
| B6 (UGT1A9) | O=c1cc(-c2ccccc2O)oc2ccccc12 | steady-state kinetics | pH 7.4, 37 °C | Vmax | 7.44e-05 µmol/min/mg |
| B7 (ARRB1 A12C/V387C) | NTSR1, GRK5-phosphorylated (Homo sapiens, UniProt P30989) | fluorescence titration |  | binding | binds |
| B8 (fbcF 9-187) | petC cytochrome c1 (Rhodobacter sphaeroides, UniProt Q02760) | X-ray crystallography |  | binding | binds |
| B9 (PHKG1) | PHKA1, phosphorylated incl. pS1018 (Homo sapiens, UniProt P46020) | cryo-EM |  | binding | binds |
| B10 (rasC GTP-bound Q62L) | racE GDP-bound T25N, pS192 (Dictyostelium discoideum, UniProt Q23862) | pull-down |  | binding | binds |
| DNAJB11 (Homo sapiens, UniProt Q9UBS4) | HSP90B1 D149N (Homo sapiens, UniProt P14625) | pull-down |  | binding | binds |

Repeated from above:
| Substance | target or system | assay | setting | quantity | value |
| --- | --- | --- | --- | --- | --- |
| B5 (DLAT 214-416) | T1, PDHA1/PDHB 30-390 E234Q on β (Homo sapiens) | SPR |  | binding | binds |
| B1 (GET1 21-104) | GET3 D57N, Alexa488 label (Saccharomyces cerevisiae, UniProt Q12154) | FRET | together with: nucleotides | binding | binds |
